Assay results from different studies.
“And” joins repeats or separate records; there may be more than shown. ± gives the spread as reported.

| Structure (SMILES) | system | setting | AUC(0-t) |
| --- | --- | --- | --- |
| Cc1c(C(=O)O)ccc2c3n(nc12)[C@@H]1[C@H](C3)N(CC2CC2)[C@@]2(C(=O)Nc3cc(Cl)ccc32)[C@H]1c1cccc(Cl)c1F | female BALB/c nude mice, SJSA-1 xenograft, plasma | oral, 1 mg/kg twice daily | 31.2 µM·h and 20.1 µM·h and 23.3 µM·h and 21.2 µM·h |
| CC1(C)CC[C@]2(C(=O)O)CC[C@]3(C)C(=CC[C@@H]4[C@@]5(C)C[C@@H](O)[C@H](OC(=O)/C=C/c6ccc(O)cc6)C(C)(C)[C@@H]5CC[C@]43C)[C@@H]2C1 (relative stereo) | C57BL/6 mice, brain | intraperitoneal, 85 µmol/kg single dose | 7.82 nmol·h/g |
| CCOc1ccc(N(C)S(=O)(=O)c2cc(Cl)sc2C(=O)Nc2cc(Cl)cc(C(=O)O)c2)cc1OC | male C57BL/6 mice, brain | intraperitoneal, 10 mg/kg | 22.8 ng·h/g |
| Cc1cc(NC(=O)c2cccc3cc(-c4cccc5[nH]nc(N)c45)ccc23)ccc1F | CD-1 mice, brain | oral, 10 mg/kg | 5010 ng·h/g |
| CCc1nc(C(N)=O)c(Nc2ccc(N3CCC(N4CCN(C)CC4)CC3)c(OC)c2)nc1NC1CCOCC1 | female FVB mice, OCT1/2 knockout, plasma | oral, 10 mg/kg, single dose | 6300 ± 611 ng·h/mL |
| CC(C)(C)c1sc2ncnc(Oc3c(F)cccc3OC(F)(F)F)c2c1-c1ccc(Cl)cc1 | wild-type mice, plasma | oral, 30 mg/kg | 38000 ng·h/mL |
| CCN(c1cc(-c2ccc(CN3CCOCC3)cc2)cc(C(=O)NCc2c(C)cc(C)[nH]c2=O)c1C)C1CCOCC1 | female CB17 SCID mice, HT-1376 xenograft, plasma | 75 mg/kg, day 1 | 23200 ng·h/mL |
| CCN1CCN(Cc2ccc(NC(=O)c3ccc(C)c(NC(=O)c4cncc(-c5cccs5)c4)c3)cc2C(F)(F)F)CC1 | C57BL/6 mice, epithelial lining fluid | intraperitoneal, 15 mg/kg | 4640 ng·h/mL |
| CN1CCC[C@H](CN2c3ccccc3Sc3ccccc32)C1.Cl | ICR mice, fasted female, eye | oral, 16 mg/kg | 1320 ng·h/mL |
| COc1cc(C)[nH]c(=O)c1CN1CCc2c(Cl)cc([C@H](OC)C3COC3)c(Cl)c2C1=O | female CB17 SCID mice, HT-1376 xenograft, plasma | 75 mg/kg, day 1 | 3380 ng·h/mL |

A few entries again:
| Structure (SMILES) | system | setting | AUC(0-t) |
| --- | --- | --- | --- |
| COc1cc(C)[nH]c(=O)c1CN1CCc2c(Cl)cc([C@H](OC)C3COC3)c(Cl)c2C1=O | female CB17 SCID mice, HT-1376 xenograft, plasma | 75 mg/kg, day 1 | 3380 ng·h/mL |
